Results of several laboratories.
Parts stem from different laboratories: compare values within a part only. Positions count from the first letter of the parent shown.

Study 1
Target: ABI1, truncated, D143A, DHFR fusion (Arabidopsis thaliana)
Technique: DHFR PCA, deep sequencing
Medium: yeast
Setting: methotrexate growth selection, single substitutions
Added: (+)-ABA 1.4 µM
Baseline: wild-type fitted maximum
Reading: higher = stronger binding
Parent: PYL1, truncated, DHFR fusion (Arabidopsis thaliana); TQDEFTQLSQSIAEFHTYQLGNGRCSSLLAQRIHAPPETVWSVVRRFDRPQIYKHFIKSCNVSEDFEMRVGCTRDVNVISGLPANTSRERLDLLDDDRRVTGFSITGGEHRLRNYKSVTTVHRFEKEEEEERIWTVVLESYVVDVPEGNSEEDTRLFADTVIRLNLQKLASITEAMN
Substitution | relative binding score
N22P | 74.6%
R69I | 49.3%
V62W | -0.659%
S80N | 24.8%
D153M | -1.37%
V76G | -1.59%
N177L | 39%
D97H | 47.6%
R74E | -1.68%
R90S | 2.86%
K126A | 82.8%
V76W | -2.73%
S11T | 54.3%
R90P | 0.196%
I172S | -3.91%
E89Q | 0.186%
V76C | 27.5%
S42F | -4.47%
A84C | 25.8%
S42V | 1.76%

Study 2
Target: Histone acetyltransferase KAT6A, both winged helices, GST fusion (KAT6A, Homo sapiens, UniProt Q92794, residues 1-181)
Technique: protein binding microarray
Form: double-stranded DNA, one strand shown
Medium: in vitro
Tested at: not given
Setting: 8-mer, flanks averaged, mean of 2 arrays, mostly near background
Baseline: not given
Reading: higher = stronger binding
Construct (chain): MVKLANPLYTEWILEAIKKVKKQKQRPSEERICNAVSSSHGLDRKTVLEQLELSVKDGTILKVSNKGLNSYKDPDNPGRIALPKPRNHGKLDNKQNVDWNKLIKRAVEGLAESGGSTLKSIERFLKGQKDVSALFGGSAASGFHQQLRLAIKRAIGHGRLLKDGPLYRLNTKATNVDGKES
Oligonucleotide | E-score
CAATATTG | -0.212
AAAGTACG | -0.0444
TTCTTAAA | -0.158
ACTGTAGC | 0.00867
AGTCACCC | -0.138
ACGCTCCG | 0.248
ATTTAGAC | -0.0384
TTGGAAAA | -0.0313
AGTCTCCC | -0.03
ACGAAGGC | -0.109
CACGGAGC | 0.263
CACTCCCG | 0.068
CAAAGGCA | -0.0724
CACGACGA | -0.0207
CAGTGTAG | -0.171
AACGGGAA | 0.309
CACGTGCA | -0.0988
TCCCTGAA | -0.0801
GAGTATAA | -0.00369
AACACGGG | 0.225
ACACTCAA | -0.0798

Study 3
Target: CCNF, cyclin fold, Cln2 fusion (human)
Technique: yeast growth competition, sequencing
Medium: yeast
Setting: strong parent motif
Baseline: not given
Reading: higher = stronger binding
Parent: PPP1R3F docking peptide (human); VAPRRVLFADEAL; partner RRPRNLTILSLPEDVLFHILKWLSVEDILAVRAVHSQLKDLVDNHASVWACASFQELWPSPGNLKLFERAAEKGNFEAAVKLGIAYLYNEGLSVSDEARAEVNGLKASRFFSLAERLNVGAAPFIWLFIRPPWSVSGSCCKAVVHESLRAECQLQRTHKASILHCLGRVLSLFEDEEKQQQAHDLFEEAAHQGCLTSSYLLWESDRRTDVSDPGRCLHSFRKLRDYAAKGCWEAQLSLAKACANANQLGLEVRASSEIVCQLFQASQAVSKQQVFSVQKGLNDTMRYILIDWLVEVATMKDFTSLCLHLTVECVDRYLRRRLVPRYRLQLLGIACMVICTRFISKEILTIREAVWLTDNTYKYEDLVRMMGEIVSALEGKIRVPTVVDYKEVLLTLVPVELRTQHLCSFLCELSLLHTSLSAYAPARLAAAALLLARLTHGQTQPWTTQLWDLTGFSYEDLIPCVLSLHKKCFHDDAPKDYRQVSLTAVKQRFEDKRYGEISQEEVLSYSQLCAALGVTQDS
Substitution | normalised enrichment score
VAPRKVLFADEAL [R5K] | 4.57
VAPRRALFADEAL [V6A] | 5.82
VAPRRVLAADEAL [F8A] | -0.0214
VAPRAVLFADEAL [R5A] | 1.25
VAPRRVAFADEAL [L7A] | 1.11
VAPRRVLFADEAA [L13A] | 7.63

Study 4
Target: RING finger protein unkempt homolog, zinc fingers 1-6, SBP tag (UNK, Homo sapiens, UniProt Q9C0B0, residues 30-357)
Chain of UniProt Q9C0B0 (30-357, looked up): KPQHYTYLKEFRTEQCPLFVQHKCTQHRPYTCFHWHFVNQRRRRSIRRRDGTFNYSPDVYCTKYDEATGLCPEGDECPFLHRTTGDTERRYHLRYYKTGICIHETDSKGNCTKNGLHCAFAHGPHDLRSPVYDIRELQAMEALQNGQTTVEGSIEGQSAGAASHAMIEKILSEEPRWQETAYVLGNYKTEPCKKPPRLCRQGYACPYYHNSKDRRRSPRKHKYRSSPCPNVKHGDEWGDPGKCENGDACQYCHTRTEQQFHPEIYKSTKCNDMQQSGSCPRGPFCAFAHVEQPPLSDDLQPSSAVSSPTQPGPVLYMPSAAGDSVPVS
Technique: RNA Bind-n-Seq
Form: RNA
Medium: in vitro
Tested at: 100 nM
Setting: RNA with constant flanks, vertebrate orthologous sites, ends assumed
Baseline: input RNA pool
Reading: higher = stronger binding
Shared flanks, not repeated: GGGAGUUCUACAGUCCGACGAUC … CAACAGAGGAUUGAGCAUCA
Oligonucleotide | bound/input enrichment [ratio]
GCAUGCACAUGCCGCUGUCACCAAAAGCAAACAUGGUCUUCAAAAUCUCCAAUAGCGUUUUUAGUAUUCUCUCCCUCCUUCCCUUCUGUUCACCCAAUGCUUUAAAUGAUUAGAAGUCCU | 2.73
CUUGCACCUCCUGGACCUUGGCUCUCCAGCUGUGGCUGUAGAGGCUGAGCUUCUUUUCUUUGAGUUUUCCCUGCUUCCUGCCUUCUGCUCCCCAUCCCAAGGUCUGACUCAUGGAGUUAC | 0.284
UGCAUUAUUUGACCAGAGUGGAAGUGACAGAGUUUGAAGAUAUUAAAUCAGGUUACAGAAUAGAUUUUUAUUUUGAUGAAAAUCCUUACUUCGAAAAUAAAGUUCUCUCCAAAGAGUUUC | 0.332
CACUAAUCAAUUUAAUUGUAUUCUGAAUAAAGUGUAACAUUGUGUAGCUUUUGUAUAAAACCAGGAAUUGGAAAUGGUCCAAAUACAUUCUUUUAAAUGCUUACAUAAGCAGAGAAACUG | 0.539
UCCUGAACGUGUUCUAGCUUGUGAUCCUUCAAAGAUGGGUUAUGCGUUAAUUCUAGGUACUAGAAAUGUUUGCGUCUCUCUUUCCACUGAUUAGAGAAACAGGCAUCAAAAAGAGAAAUA | 0.246
UGAGGGAGAGAUUUCUGUGCUUUCUGAUAUUUAAUUUGCUCUUUUUAAGGUAUUCCAACCUAGAGUUUUUGAUGAAACUGAUAUAUUGACAGUUCUCACCUAAGUCCUUUUAUAAAGAAU | 0.807
UUACAGUCCUCUACUUAAACUGGUAUUUUCAAACAAUAGGAAGCUUUUUUUUUUUUACAGUUUAGUAUCUUGUUUCUACAUGGAAGACUAAACAUGCUUAUAGCUAAAUGUGGUCUUUGC | 0.769
AGAAACCCAAGGAUUCAGGACUGGUUCUAUAAAUAUGCCAAGUAGAUAUGGAACGAACAAUAGAGCCGGACAGCCAAGACCUUAAUGAACUUCACUUUACUUUAUUUUUAUGAGAACUUU | 0.848
GUGCAAGGAGAUUAUUCCAACUAGUGAAUUUAUUAACAGUAAGUUGACAGCAAAAGCCAACAGGCAGCUUCAAGAUCCUCUAGUGAUCAUGACCGGAAACAUCCCAACAUGGCUGACUGA | 0.346
UAAUUCAAUGGUUGAGGGUUCAGAACUCAAAAAGGUUCGCUCCAACUCUAGAAUUUAUCAUAGGUACUUUUUACUGGAUGCCGACAUGCAGAGCCUAAGGUGGGAGCCAUCAAAGAAGGA | 0.298
CUACUAUAAACAACUCAGGGCAGUAUUCUCGGUAUCCUUACAGUAACCUAAAUCAGGGAUUAGUUAACAAUACAGGGAUGAAUCAAAAUUUAGGCCUUACAAAUAACACUCCAAUGAAUC | 1.34

Mixed results
Molecule | target | assay | system | conditions | how to read | endpoint | result
PhoQ, residues 284 288 289 292 302 303 NLALSC | PhoP, residues 12 14 15 18 19 TTLRV (Escherichia coli, UniProt P23836) | Sort-seq, refers to: YFP reporter | E. coli | PhoQ-PhoP variant library, added: 10 µM Mg2+ | baseline: high Mg2+ state, higher = stronger signaling | fold induction | 5.28

Repeated from above (study 2):
Oligonucleotide | E-score
CAAAGGCA | -0.0724
CACGACGA | -0.0207
CAGTGTAG | -0.171
AACGGGAA | 0.309
